Measured values collected from several papers.
Protocols differ between the studies behind these lines. Several values in a cell are separate wells, animals, samples, runs or records. ± gives the spread as reported.
uncharacterized protein: uncharacterized protein (Anopheles coluzzii, UniProt A0A6E8VQK1)
MYLK: Myosin light chain kinase, smooth muscle (MYLK, Homo sapiens, UniProt Q15746)
Chain of UniProt Q15746 (whole entry, looked up): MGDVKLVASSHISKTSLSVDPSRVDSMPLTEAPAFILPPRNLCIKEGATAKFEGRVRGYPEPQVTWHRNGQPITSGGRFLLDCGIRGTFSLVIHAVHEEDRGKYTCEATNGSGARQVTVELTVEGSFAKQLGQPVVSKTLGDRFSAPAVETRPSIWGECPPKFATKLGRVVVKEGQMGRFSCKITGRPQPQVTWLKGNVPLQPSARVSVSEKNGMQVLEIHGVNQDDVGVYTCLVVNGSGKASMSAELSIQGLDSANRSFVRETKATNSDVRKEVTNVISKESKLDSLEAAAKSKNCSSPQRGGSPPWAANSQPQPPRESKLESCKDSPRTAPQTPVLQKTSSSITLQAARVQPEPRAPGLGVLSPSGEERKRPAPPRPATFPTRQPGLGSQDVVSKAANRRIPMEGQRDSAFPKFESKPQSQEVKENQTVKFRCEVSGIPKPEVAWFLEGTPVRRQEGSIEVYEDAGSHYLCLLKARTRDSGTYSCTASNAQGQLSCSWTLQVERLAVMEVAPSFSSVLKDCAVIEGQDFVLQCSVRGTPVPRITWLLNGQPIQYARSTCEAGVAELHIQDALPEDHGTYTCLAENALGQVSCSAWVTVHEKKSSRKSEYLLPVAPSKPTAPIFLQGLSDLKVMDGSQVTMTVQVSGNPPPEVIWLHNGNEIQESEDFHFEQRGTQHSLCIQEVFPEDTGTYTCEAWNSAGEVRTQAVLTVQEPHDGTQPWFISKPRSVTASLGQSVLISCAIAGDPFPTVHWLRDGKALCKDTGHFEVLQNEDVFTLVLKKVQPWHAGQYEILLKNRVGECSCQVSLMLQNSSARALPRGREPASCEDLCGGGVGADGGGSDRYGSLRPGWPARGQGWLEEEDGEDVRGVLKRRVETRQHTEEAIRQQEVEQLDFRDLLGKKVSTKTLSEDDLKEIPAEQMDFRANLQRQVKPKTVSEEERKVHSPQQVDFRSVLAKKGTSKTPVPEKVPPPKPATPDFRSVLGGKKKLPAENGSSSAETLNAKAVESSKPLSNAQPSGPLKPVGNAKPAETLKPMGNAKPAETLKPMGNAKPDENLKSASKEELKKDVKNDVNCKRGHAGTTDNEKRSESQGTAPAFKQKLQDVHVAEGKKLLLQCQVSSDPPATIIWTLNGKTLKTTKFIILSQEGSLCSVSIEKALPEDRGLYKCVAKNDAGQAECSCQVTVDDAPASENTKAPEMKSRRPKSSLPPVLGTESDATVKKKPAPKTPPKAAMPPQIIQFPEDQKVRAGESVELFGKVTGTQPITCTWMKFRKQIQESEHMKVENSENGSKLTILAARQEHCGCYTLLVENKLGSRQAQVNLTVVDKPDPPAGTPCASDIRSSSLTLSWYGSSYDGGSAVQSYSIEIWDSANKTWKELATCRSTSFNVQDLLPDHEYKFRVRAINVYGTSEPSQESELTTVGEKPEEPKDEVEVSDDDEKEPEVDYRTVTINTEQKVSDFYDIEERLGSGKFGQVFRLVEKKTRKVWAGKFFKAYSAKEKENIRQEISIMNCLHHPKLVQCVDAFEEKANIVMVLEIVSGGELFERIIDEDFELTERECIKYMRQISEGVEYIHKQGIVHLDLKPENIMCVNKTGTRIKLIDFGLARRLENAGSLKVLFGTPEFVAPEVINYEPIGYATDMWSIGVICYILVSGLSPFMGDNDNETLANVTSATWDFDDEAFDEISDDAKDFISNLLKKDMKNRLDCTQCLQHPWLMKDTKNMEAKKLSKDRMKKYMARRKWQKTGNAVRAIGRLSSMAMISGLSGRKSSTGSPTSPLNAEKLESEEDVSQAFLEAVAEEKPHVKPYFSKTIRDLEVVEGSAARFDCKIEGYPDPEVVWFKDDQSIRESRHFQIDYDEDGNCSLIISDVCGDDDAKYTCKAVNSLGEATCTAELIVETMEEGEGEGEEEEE
Ahr: Aryl hydrocarbon receptor (Ahr, Rattus norvegicus, UniProt P41738)
Chain of UniProt P49286 (whole entry, looked up): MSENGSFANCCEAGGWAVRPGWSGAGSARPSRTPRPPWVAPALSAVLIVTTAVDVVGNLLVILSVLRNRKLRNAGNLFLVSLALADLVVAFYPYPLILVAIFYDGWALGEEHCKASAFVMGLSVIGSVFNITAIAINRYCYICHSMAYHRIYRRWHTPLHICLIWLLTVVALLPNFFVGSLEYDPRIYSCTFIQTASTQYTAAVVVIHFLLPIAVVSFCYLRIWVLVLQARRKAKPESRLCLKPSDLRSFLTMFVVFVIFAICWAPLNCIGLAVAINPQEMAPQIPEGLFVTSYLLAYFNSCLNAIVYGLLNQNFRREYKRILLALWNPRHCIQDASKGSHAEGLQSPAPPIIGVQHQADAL
Chain of UniProt P41738 (whole entry, looked up): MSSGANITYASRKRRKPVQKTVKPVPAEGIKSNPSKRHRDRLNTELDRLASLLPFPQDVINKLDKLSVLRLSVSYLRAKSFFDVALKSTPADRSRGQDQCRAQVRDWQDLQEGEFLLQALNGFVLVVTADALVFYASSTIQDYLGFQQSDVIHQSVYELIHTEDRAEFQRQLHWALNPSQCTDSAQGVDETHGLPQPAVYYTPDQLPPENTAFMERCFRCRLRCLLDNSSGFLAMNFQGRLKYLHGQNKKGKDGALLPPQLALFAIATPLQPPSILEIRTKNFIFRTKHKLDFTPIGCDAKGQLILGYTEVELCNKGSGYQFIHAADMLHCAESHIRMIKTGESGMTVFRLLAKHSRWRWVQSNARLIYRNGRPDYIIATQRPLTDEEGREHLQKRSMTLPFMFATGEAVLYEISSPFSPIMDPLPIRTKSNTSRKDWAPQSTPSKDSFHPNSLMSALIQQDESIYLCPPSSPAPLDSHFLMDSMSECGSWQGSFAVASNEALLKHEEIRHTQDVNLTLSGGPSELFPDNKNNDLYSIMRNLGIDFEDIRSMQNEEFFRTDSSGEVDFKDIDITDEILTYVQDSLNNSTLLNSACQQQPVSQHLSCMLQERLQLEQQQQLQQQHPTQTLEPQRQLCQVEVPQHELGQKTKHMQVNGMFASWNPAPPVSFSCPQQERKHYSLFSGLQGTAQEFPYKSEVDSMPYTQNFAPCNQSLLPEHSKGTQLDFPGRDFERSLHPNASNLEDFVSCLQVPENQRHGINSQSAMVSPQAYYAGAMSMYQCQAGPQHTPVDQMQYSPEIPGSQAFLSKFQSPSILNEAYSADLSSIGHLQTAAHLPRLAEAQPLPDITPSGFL
Chain of UniProt P02716 (whole entry, unmodified, looked up): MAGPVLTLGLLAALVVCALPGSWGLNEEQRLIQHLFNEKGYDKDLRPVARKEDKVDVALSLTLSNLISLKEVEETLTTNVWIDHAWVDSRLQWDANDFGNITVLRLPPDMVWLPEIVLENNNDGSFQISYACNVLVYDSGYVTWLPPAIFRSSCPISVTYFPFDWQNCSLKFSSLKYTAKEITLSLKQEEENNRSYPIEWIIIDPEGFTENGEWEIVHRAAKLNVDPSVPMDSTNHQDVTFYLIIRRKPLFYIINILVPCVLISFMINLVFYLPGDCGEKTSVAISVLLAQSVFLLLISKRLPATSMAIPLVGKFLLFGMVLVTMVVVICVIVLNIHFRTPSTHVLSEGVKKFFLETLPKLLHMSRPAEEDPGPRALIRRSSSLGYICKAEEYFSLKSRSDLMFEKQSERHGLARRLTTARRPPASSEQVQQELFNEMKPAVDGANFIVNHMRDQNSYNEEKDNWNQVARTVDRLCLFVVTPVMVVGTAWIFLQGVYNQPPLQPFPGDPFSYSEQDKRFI
Chain of UniProt Q6PJP8 (whole entry, looked up): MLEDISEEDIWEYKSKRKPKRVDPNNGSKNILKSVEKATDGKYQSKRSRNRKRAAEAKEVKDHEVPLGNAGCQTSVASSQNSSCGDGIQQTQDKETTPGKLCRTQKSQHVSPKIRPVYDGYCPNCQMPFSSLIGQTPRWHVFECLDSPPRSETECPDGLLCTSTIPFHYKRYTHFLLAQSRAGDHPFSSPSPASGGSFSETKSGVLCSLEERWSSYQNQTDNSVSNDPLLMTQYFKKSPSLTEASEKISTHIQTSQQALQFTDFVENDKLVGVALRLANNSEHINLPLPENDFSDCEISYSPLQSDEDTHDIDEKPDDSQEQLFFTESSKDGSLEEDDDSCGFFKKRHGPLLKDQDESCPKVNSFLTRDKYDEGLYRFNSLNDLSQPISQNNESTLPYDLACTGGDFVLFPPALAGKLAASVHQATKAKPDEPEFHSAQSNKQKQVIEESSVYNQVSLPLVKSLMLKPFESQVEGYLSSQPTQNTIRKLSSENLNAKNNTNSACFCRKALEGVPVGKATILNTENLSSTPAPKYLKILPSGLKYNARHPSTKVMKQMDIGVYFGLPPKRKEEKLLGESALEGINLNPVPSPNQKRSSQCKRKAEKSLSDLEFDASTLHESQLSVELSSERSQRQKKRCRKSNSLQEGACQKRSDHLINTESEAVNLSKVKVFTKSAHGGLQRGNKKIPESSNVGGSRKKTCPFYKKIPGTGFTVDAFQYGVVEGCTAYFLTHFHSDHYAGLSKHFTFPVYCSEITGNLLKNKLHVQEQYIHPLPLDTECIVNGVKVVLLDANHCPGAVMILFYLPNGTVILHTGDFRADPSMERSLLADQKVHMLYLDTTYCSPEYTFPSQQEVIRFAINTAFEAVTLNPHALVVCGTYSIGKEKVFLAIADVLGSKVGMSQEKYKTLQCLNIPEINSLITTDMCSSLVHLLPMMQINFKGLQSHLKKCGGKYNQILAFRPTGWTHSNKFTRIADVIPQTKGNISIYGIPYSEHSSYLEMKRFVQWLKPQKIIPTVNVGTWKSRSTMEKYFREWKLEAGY
Chain of UniProt P00942 (whole entry, unmodified, looked up): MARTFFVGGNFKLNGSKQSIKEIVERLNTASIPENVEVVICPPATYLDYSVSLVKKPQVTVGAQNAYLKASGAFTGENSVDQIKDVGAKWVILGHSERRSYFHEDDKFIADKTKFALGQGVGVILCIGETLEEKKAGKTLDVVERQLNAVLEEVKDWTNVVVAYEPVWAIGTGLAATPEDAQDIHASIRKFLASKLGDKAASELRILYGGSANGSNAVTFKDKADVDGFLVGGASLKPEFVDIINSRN

For `C[C@@H](O)[C@H](NC(=O)c1ccc(-c2ccc(Br)cc2)cc1)C(=O)NO`, “-TΔS of binding” read -4.92 kcal/mol (UDP-3-O-acyl-N-acetylglucosamine deacetylase (Pseudomonas aeruginosa, UniProt P47205, C40S); ITC; concentration not given, 298 K).
`c1cncc([C@@H]2CCCN2)c1` has an affinity ratio of 1.4 (Chrnd/Chrna1/Chrne (Mus musculus, UniProt P02716+P04756+P20782, G173K/S470W); ligand binding, agonist, single-channel kinetics; chain K; baseline: wild type over mutant).
`O=C(Nc1cnccc1Cl)N1CCN(Cc2ccc3c(c2)OC(F)(F)O3)CC1` gave an inhibition of 7% and 2% (MTNR1B (Homo sapiens, UniProt P49286); radioligand binding; concentration not given).
With `[2H]c1c([2H])c([C@]2([2H])CCCN2C(=O)C(C)(C)Oc2ccc3cn[nH]c3c2)c([2H])c([2H])c1C([2H])([2H])[2H]` the remaining binding was 70% (NEK3 (Homo sapiens, UniProt P51956); KINOMEscan; 1 µM; baseline: DMSO control).
The specific binding of `CCN(CC)CCCC[C@H](NC(=O)[C@H](CC(C)C)NC(=O)[C@H](C)NC(=O)[C@H](Cc1ccccc1)NC(=O)c1ccc(C(C)(C)C)cc1)C(=O)N[C@@H](CO)C(=O)OC` is reported as 99% (CHRM1 (Homo sapiens, UniProt P11229); antagonist, radioligand binding; 10 µM; baseline: control binding).
`CNC(=O)Oc1ccccc1OC(C)C` gave a remaining activity of 79.2% (uncharacterized protein; enzyme activity, inhibitor; Sf9 cell homogenate; 1.147 µM, 0.1667 h, together with: α-naphthyl acetate substrate; baseline: no inhibitor).
`COC(=O)[C@@]1(O)C[C@H]2O[C@]1(C)n1c3ccccc3c3c4c(c5c6ccccc6n2c5c31)C(=O)NC4` has a remaining activity of 114% (MAPK3 (Homo sapiens, UniProt P27361); ADP-Glo; 2.91 µM, together with: substrate MBP).
`CC(=O)N[C@H](C(=O)N1C[C@H](O)C[C@H]1C(=O)NCc1ccc(-c2scnc2C)cc1)C(C)(C)SCCCCCCNC(=O)C[C@@H]1N=C(c2ccc(Cl)cc2)c2c(sc(C)c2C)-n2c(C)nnc21` gave a ΔG of -10.11 ± 0.01 kcal/mol (Bromodomain-containing protein 4, BD2 (BRD4, Homo sapiens, UniProt O60885, A384K/E383V/K378Q); ITC; 25 °C, BD2 mutant, binary).
`CN(CC(=O)O)C(=N)NP(=O)(O)O` gave a kcat of < 0.0001 s⁻¹ (CKMT1A (Homo sapiens, UniProt P12532, E264A); substrate, Kinase-Glo luminescence; pH 7.0, reverse reaction, E226A mutant, together with: second substrate in excess).
For `CC(C)[C@@H](O)CC[C@@H](C)[C@H]1CC[C@H]2[C@@H]3CC=C4C[C@@H](O)CC[C@]4(C)[C@H]3CC[C@]12C`, the current response was 534 ± 40% (Glutamate NMDA receptor; GRIN1/GRIN2B (GRIN1/GRIN2B, Homo sapiens, UniProt Q05586+Q13224, L551A); positive allosteric modulator, two-electrode voltage clamp; Xenopus oocytes expressing GluN2B-L551A; 10 µM, 0.02% cremophor, together with: 100 µM glutamate and glycine; baseline: without compound).
`COc1cc(Nc2ncc(F)c(Nc3ccc4c(n3)NC(=O)C(C)(C)O4)n2)cc(OC)c1OC` has an inhibition of 54% (MYLK; KINOMEscan; 10 µM).
`CN(C(=O)n1cnc(-c2ccc[n+]([O-])c2)c1)C1CCCCC1` has an inhibition of 7% (GABBR1 (Homo sapiens, UniProt Q9UBS5); radioligand binding; 50 µM, together with: [3H]CGP-54626).
`O=C(Cc1cccs1)N[C@@H]1C(=O)N2C(C(=O)O)=C(/C=C/c3ccc([N+](=O)[O-])cc3[N+](=O)[O-])CS[C@H]12` gave a kcat of ≤ 0.1 s⁻¹ (blaNDM-1 (Klebsiella pneumoniae, UniProt C7C422, C208H); substrate, steady-state kinetics).
The fold induction of `Clc1cc2c(cc1Cl)Oc1cc(Cl)c(Cl)cc1O2` is reported as 7.69 (Uncharacterized protein (Takifugu rubripes, UniProt Q4JHL6); reporter gene, agonist, dual-luciferase; COS-7; 0.1 µM, 28 h; baseline: DMSO).
`CN1CCN(c2cc(-c3ccncc3)c(-c3ccc4ccccc4c3)nn2)CC1` gave an inhibition of 32.1% (FFAR3 (Homo sapiens, UniProt O14843); antagonist, FLIPR; 10 µM).
`O=C(c1ccc(Cl)cc1)N1CCN2C(=O)N(OC(=O)N3CCOc4ccccc43)C(=O)C2C1` (stereo not shown) — result for “median protein ratio”: 1.05 (Complement C1r subcomponent-like protein (C1RL, Homo sapiens, UniProt Q9NZP8); MS-based ABPP; SW-620 conditioned medium; 10 µM, 1 h, 37 °C; baseline: compound over DMSO, lower = more inhibition).
`C[C@@H](NC(=O)[C@@H](N)Cc1ccc(O)cc1)C(=O)NCC(=O)N[C@@H](Cc1ccccc1)C(N)=O` gave a selectivity ratio of 107 (Oprm1 (Rattus norvegicus, UniProt P33535); binding; baseline: Ki δ over Ki µ).
With `C[C@@H]1C[C@@H]([C@H](O)CC2CC(=O)NC(=O)C2)C(=O)[C@@H](C)C1` the FLuc/RLuc ratio was 1.19 and 0.868 and 1.18 and 1.06 (Protein transport protein Sec61 subunit alpha isoform 1 (Homo sapiens, UniProt P61619); reporter gene, inhibitor, dual luciferase; HEK293 with SP-CD4-FLuc reporter; concentration not given).
`O=C1C=C2C(=CCOC2O)O1` (stereo not shown) gave a remaining activity of 22.9% (DCLRE1A (Homo sapiens, UniProt Q6PJP8); exonuclease activity, inhibitor, fluorescence HTS; 10 µM, 80 min, together with: 8 nM 5P-FQ substrate).
`COc1cc(N)c(Cl)cc1C(=O)NC1CN2CCC1CC2` (stereo not shown): “log2 fold change” -0.234 (Adhesion G protein-coupled receptor F5 (ADGRF5, Homo sapiens, UniProt Q8IZF2); β-arrestin recruitment, TANGO luminescence, item: GPR116; concentration not given; baseline: basal luminescence).
`O=P(O)(O)OC[C@H]1C[C@@](O)(CO)[C@@H](O)[C@H](O)[C@@H]1O` has an apparent Vmax of 3.2 ± 0.4 µM/min (valA (Streptomyces hygroscopicus, UniProt H2K887); phosphate release; 10 µM).
For `CC[C@H](C)[C@H](NC(=O)CNC(=O)[C@@H](N)CCCCN)C(=O)N[C@@H](CC(C)C)C(=O)N[C@@H](CCCCN)C(=O)N[C@@H](CCCNC(=N)N)C(=O)N[C@@H](CCC(=O)O)C(=O)N[C@@H](CCCCN)C(=O)N[C@@H](CCCNC(=N)N)C(=O)N[C@@H](CC(C)C)C(=O)N[C@@H](CCCNC(=N)N)C(=O)N[C@@H](CCCNC(=N)N)C(=O)N[C@@H](CCCCN)C(=O)N[C@@H](CC(N)=O)C(=O)N[C@H](C(=O)N[C@@H](Cc1c[nH]cn1)C(=O)N[C@@H](Cc1c[nH]c2ccccc12)C(=O)N1CCC[C@H]1C(=O)N[C@@H](CCC(=O)O)C(=O)N[C@@H](CCC(=O)O)C(=O)NCC(=O)N[C@@H](CCCCN)C(=O)N[C@@H](CC(C)C)C(=O)N[C@@H](CCCNC(=N)N)C(=O)N[C@@H](CCC(=O)O)C(=O)N[C@@H](Cc1ccccc1)C(=O)N[C@@H](Cc1ccccc1)C(=O)N[C@@H](Cc1ccccc1)C(=O)N[C@@H](Cc1ccccc1)C(=O)N[C@@H](CCC(=O)O)C(=O)N[C@@H](CC(C)C)C(=O)N[C@@H](CC(=O)O)C(=O)N[C@@H](CCC(=O)O)C(=O)N[C@@H](C)C(=O)N[C@@H](CCC(=O)O)C(=O)N[C@@H](CCCNC(=N)N)C(=O)N[C@H](C(=O)N[C@@H](CC(N)=O)C(=O)N[C@H](C(=O)O)C(C)C)C(C)C)C(C)C`, “enthalpy change ΔH” read -28.4 ± 1 kcal/mol (PPP1CA (Homo sapiens, UniProt P62136); binding, isothermal titration calorimetry; concentration not given, 25 °C, PP1α residues 7-330).
For `CC(=O)C1C(=O)c2ccccc2C1=O`, IC50 read “inactive” (Nuclear receptor subfamily 1 group I member 3 (Homo sapiens, UniProt Q14994); coactivator recruitment).
`CC(C)C[C@H](NC(=O)[C@@H]1CCCN1C(=O)[C@H](CCCNC(=N)N)NC(=O)[C@H](CC(C)C)NC(=O)[C@H](CCCNC(=N)N)NC(=O)[C@H](CC(=O)O)NC(=O)[C@H](Cc1ccc(O)cc1)NC(=O)[C@H](CC(=O)O)NC(=O)[C@H](CCC(=O)O)NC(=O)[C@H](CCC(N)=O)NC(=O)CN)C(=O)O` gave a kon of 277 M⁻¹ s⁻¹ (Epithelial sodium channel subunit alpha (Homo sapiens, UniProt P37088); binding, bio-layer interferometry).
`C[C@H]1CN(c2n[nH]c3nc(N[C@H]4CC[C@H](NS(=O)(=O)CCC(F)(F)F)CC4)ncc23)CCO1` gave a relative abundance of 1.02 (MYLK; inhibitor, Kinobeads competition profiling; 0.8 µM; baseline: vehicle).
For `CNC(=O)Oc1cccc2c1OC(C)(C)O2`, the remaining activity was 19.2% (uncharacterized protein; enzyme activity, inhibitor; Sf9 cell homogenate; 18.6 µM, 0.1667 h, together with: α-naphthyl acetate substrate; baseline: no inhibitor).
`c1ccc2c(c1)cc1ccc3cccc4ccc2c1c34` has an agonist response of 75.7% (Ahr; agonist, CALUX reporter; H4IIE; 0.0126 µg/mL).
For `CC(CCn1ccc(-c2ccc(-c3cn(Cc4cccnc4)nn3)cc2)cc1=O)(C(=O)NO)S(C)(=O)=O` (stereo not shown), the residence time was 121 min and ~120 min (UDP-3-O-acyl-N-acetylglucosamine deacetylase (Pseudomonas aeruginosa, UniProt P47205); fluorescence; 37 °C).
With `COc1ccc(N2C(=O)N(c3c(C)cccc3Cl)Cc3cnc(Nc4ccc(C5CCN(C)CC5)cc4OC)nc32)nc1` the inhibition was 2.52% (MAPKAPK5 (Homo sapiens, UniProt Q8IW41); kinase activity, inhibitor; 0.5 µM, kinase PRAK).
For `CC(C)[C@@H]1NC(=O)[C@H](C)OC(=O)[C@@H](C(C)C)NC(=O)[C@@H](C(C)C)OC(=O)[C@H](C(C)C)NC(=O)[C@H](C)OC(=O)[C@@H](C(C)C)NC(=O)[C@@H](C(C)C)OC(=O)[C@H](C(C)C)NC(=O)[C@H](C)OC(=O)[C@@H](C(C)C)NC(=O)[C@@H](C(C)C)OC1=O`, “Luke-S1 reporter signal” read 18.5 ± 5.6% (Metalloendopeptidase OMA1, mitochondrial (OMA1, Homo sapiens, UniProt Q96E52); protease activity; concentration not given; baseline: untreated cells).
With `O=C(Nc1cccnn1)N1CCC(=Cc2cccc(Oc3ccc(C(F)(F)F)cn3)c2)CC1` the inhibition was 8% (CHRM3 (Homo sapiens, UniProt P20309); binding; 10 µM, together with: [3H]N-methylscopolamine).
The Ki ratio of `O=C(O)COP(=O)(O)O` is reported as 3.7 (TPI1 (Saccharomyces cerevisiae, UniProt P00942, S211G); enzyme activity, competitive inhibitor, GPDH/NADH-coupled; pH 9.3, 25 °C, ionic strength 0.1 NaCl, together with: glyceraldehyde 3-phosphate substrate; baseline: mutant over wild type).
The remaining binding of `Nc1ncc(-c2nc(N3CCOCC3)nc(N3CCOCC3)n2)c(C(F)F)n1` is reported as 72% (BMPR1B (Homo sapiens, UniProt O00238); KINOMEscan; 10 µM).
The specificity ratio of `c1cc2ccc3cccc4ccc(c1)c2c34` is reported as 2.11 (Ahr; reporter gene, activator; baseline: baseline cytotoxicity over effect concentration).
